Experimental data from different studies.
Numbered parts are unrelated; each lists some results of a single study. Changes are numbered by the printed parent chain.
Chain of UniProt Q96L34 (whole entry, looked up): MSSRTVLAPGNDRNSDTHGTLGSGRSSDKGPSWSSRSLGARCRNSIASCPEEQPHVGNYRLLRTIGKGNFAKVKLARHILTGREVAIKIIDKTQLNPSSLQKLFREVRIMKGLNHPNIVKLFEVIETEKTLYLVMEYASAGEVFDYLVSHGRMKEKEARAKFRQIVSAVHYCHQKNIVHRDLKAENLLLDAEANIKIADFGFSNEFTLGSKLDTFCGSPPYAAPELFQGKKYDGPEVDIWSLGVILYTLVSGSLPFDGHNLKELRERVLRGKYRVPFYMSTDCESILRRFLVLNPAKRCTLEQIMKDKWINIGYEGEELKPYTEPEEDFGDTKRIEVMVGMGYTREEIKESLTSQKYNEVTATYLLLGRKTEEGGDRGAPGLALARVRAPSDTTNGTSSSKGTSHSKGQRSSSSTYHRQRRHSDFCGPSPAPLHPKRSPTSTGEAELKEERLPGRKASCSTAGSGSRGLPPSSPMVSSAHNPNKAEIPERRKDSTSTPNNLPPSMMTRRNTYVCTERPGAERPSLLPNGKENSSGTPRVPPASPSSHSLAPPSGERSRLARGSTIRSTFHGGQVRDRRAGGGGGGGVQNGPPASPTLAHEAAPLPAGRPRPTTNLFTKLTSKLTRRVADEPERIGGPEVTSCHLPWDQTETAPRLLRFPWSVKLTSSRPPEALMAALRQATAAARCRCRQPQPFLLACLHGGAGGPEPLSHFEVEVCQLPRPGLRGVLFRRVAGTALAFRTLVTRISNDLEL
Chain of UniProt P29320 (whole entry, looked up): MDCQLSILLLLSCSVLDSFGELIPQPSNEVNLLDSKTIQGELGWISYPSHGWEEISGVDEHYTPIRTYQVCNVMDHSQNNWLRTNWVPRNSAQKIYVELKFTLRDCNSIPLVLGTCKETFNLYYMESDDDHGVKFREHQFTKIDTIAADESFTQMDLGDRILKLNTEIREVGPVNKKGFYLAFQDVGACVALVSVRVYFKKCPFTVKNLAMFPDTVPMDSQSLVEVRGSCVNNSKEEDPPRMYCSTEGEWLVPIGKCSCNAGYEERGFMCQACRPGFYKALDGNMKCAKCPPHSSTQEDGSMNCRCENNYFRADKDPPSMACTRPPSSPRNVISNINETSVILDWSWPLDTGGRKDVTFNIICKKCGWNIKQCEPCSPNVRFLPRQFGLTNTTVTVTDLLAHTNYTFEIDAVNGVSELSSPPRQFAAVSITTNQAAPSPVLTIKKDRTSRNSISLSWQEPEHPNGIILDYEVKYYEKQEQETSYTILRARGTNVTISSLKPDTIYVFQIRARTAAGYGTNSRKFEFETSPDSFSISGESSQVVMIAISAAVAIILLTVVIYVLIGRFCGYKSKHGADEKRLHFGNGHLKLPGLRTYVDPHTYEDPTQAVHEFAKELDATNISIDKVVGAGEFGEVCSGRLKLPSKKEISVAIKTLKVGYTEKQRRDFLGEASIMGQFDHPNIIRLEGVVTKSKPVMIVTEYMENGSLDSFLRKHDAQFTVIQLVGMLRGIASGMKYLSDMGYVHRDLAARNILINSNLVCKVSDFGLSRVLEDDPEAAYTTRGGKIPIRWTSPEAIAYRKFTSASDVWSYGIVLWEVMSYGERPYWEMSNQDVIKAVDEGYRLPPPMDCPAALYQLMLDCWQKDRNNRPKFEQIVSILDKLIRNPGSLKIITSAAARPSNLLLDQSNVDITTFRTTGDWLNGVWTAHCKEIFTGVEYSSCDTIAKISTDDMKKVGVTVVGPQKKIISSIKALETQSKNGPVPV

Series 1 — target: FOS, bZIP domain (human); technique: DHFR protein complementation; sample: yeast; reference: wild-type JUN-FOS pair; direction: higher = stronger binding
Setting: single substitutions, most at no-binding floor
Starting sequence: JUN, bZIP domain (human); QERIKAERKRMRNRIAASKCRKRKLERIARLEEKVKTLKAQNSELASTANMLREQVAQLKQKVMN; partner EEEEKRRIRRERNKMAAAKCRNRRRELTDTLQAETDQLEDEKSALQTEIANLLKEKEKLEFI
`N42R` has a binding fitness of -0.272 natural log.
`E54M` gave a binding fitness of -0.183 natural log.
`Q55W` has a binding fitness of -0.629 natural log.
`S47D` has a binding fitness of 0.0329 natural log.
With `K36N` the binding fitness was -0.0186 natural log.
For `V56W`, the binding fitness was -1.34 natural log.
For `K34Q`, the binding fitness was -0.0752 natural log.
For `A57Q`, the binding fitness was -0.0962 natural log.

Series 2 — technique: Spec-seq; molecule type: double-stranded DNA, one strand shown; sample: in vitro; tested at: not given; setting: whole probe, mean of replicates; reference: not given; direction: lower = stronger binding; all sequences stand within: GAGTCGTCTCGTCAGCAC … CCGTAGAGCACTCAGGTC
Target: Transcription factor SOX-2, HMG box (Sox2, Mus musculus, UniProt P48432, residues 41-119)
Chain of UniProt P48432 (41-119, looked up): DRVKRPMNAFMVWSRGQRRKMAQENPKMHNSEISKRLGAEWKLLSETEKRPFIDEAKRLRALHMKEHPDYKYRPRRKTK
`CATTCGC`: “relative binding energy” 0.142 ln ratio.
`CATGGCA` — result for “relative binding energy”: 0.148 ln ratio.
`CATCAGC` — result for “relative binding energy”: 0.671 ln ratio.
For `CATTAGA`, “relative binding energy” read -0.127 ln ratio.
For `CATGCCC`, “relative binding energy” read 0.709 ln ratio.
`GCCGGTT` — result for “relative binding energy”: 1.43 ln ratio.
`CATAGAC`: “relative binding energy” -0.759 ln ratio.
`CATGTGG` — result for “relative binding energy”: 0.371 ln ratio.

Other studies, line by line
With `COc1cc2nccc(Oc3ccc(NC(=S)NC(=O)c4ccccc4C)cc3)c2cc1OC` the remaining activity was 105% (EPHA3 (Homo sapiens, UniProt P29320); enzyme activity, inhibitor; 0.5 µM; reference: control).
`CN(C)CC#Cc1ccc(OCCCc2sc(N3CCc4cccc(C(=O)Nc5nc6ccccc6s5)c4C3)nc2C(=O)O)c(F)c1` has a remaining binding of 76% (MARK4 (Homo sapiens, UniProt Q96L34); cell-free assay, competition with immobilised ligand; 1 µM).

A few entries again (series 1):
`N42R` has a binding fitness of -0.272 natural log.
